Measurements collected from several papers.
Protocols differ between the studies behind these lines. Values joined by “and” are separate records of one study, mostly repeats; a detail may differ. Numbers after ± are the reported error.
Cell line: MCF7

CCC(=CCc1c(O)cc2c(c1O)C(=O)CC(c1cccc(O)c1)O2)CC (stereo not drawn)
growth inhibition (cytotoxicity, MTT; 6.786 µM, 48 h): 15.4%

C[C@@H]1CC[C@@H]([C@@](O)(CNCc2ccc(F)cc2)COCc2ccccc2)[C@H](OCc2ccccc2)C1
inhibition (cell growth or viability, MTT; 30 µM, 72 h): 83.6%

COC(=O)c1cc(NC2=NC(=O)C(=Cc3ccc(C)cc3)S2)ccc1OC(C)=O
metabolite level (GC-MS, refers to: Phosphorylethanolamine; 1 µM; baseline: DMSO): -0.84 fold change

CC[C@@H]([C@H](C)c1ccc(O)cc1)[C@@H](CC)c1ccc(O)cc1
EC50 (cell growth or viability, ATP luminescence; 5 days): 0.019 µM

Cc1c(COc2cc(OCc3cccc(C#N)c3)c(CNC(CO)(CO)CO)cc2Cl)cccc1-c1cccc(OCCCCCC(=O)NO)c1
apoptotic cells (annexin V-FITC/PI flow cytometry; 20 µM, 48 h, early plus late apoptosis): 74.6%

CCCCCCCCCCCCNC(=S)NCCCC[C@H](NC(=O)OCc1ccccc1)C(=O)N[C@@H](Cc1c[nH]c2ccccc12)C(=O)NC(C)C
EC50 (cell growth or viability, MTT; 72 h): 25.6 to 28.9 µM

CSC(=NN=C(C)c1ccc(S(=O)(=O)N2CCC(C)CC2)cc1)N(C)C
late apoptotic cells (annexin V/PI; concentration not given, 72 h, at IC50): 8.38%

CCNC(=S)N/N=C(\C)c1c(O)c2ccccc2oc1=O
selectivity index (cell growth, MTT; baseline: IC50 BJ-1 over MCF7): > 4.41

CCC(=CCc1c(O)cc2c(c1O)C(=O)CC(c1ccc(OC)c(O)c1)O2)CC (stereo not drawn)
growth inhibition (cytotoxicity, MTT; 50.19 µM, 48 h): 89.5%

COc1ccccc1CNC[C@@](O)(COCc1ccccc1)[C@@H]1CC[C@@H](C)C[C@H]1OCc1ccccc1
inhibition (cell growth or viability, MTT; 10 µM, 72 h): 93.4%

Nc1cc2cccnc2c2ncccc12.[Cl-].[Cl-].[Ru+2].c1cnc2c(c1)ccc1cccnc12.c1cnc2c(c1)ccc1cccnc12
phototoxicity index (MTT; baseline: IC50 dark over light): > 9

Cc1c(COc2cc(OCc3cccc(C#N)c3)c(CN3CCCC[C@@H]3C(=O)O)cc2Cl)cccc1-c1cccc(OCCCCCCC(=O)NO)c1
PD-L1 expression (flow cytometry; 20 µM, 48 h; baseline: control): increased

COC(=O)c1cc(NC2=NC(=O)C(=Cc3ccc(N(C)C)cc3)S2)ccc1OC(C)=O
metabolite level (GC-MS, refers to: Stearic acid; 1 µM; baseline: DMSO): 0.54 fold change

COc1ccc(CNC[C@@](O)(COCc2ccccc2)[C@@H]2CC[C@@H](C)C[C@H]2OCc2ccccc2)cc1
inhibition (cell growth or viability, MTT; 30 µM, 72 h): 93.9%

CC(=NN=c1sc(C(=O)c2ccccc2)nn1-c1ccccc1)c1ccc(S(=O)(=O)N2CCC(C)CC2)cc1
total apoptotic cells (annexin V/PI; concentration not given, 72 h, at IC50): 14.3%

C[C@@H]1Cc2c([nH]c3ccccc23)[C@@H](c2c(F)cc(/C=C/C(=O)O)cc2F)N1C12CC(C1)C2
log2 fold change (RNA-seq, refers to: RAPGEFL1 mRNA; 1 µM, 24 h, E2-induced gene; baseline: DMSO vehicle): -1.41

CC(C)C[C@@H](NC(=O)[C@H](C)NC(=O)CNC(=O)[C@@H](NC=O)C(C)C)C(=O)N[C@@H](C)C(=O)N[C@@H](C(=O)N[C@H](C(=O)N[C@@H](C(=O)N[C@@H](Cc1c[nH]c2ccccc12)C(=O)N[C@H](CC(C)C)C(=O)N[C@@H](Cc1c[nH]c2ccccc12)C(=O)N[C@H](CC(C)C)C(=O)N[C@@H](Cc1c[nH]c2ccccc12)C(=O)N[C@H](CC(C)C)C(=O)N[C@@H](Cc1c[nH]c2ccccc12)C(=O)NCCO)C(C)C)C(C)C)C(C)C
cells in G1 phase (flow cytometry; 100 nM, 48 h): 56.8 ± 2.32%

CC(=O)[O][Pd][c]1cc(C)ccc1N1N=C(C)C(C)(C)C1=O.CC(=O)[O][Pd][c]1cc(C)ccc1N1N=C(C)C(C)(C)C1=O
caspase-3/7 active cells (FLICA flow cytometry; 25 µM, 24 h): 41.1 ± 4.3%

C[C@@H]1CC[C@@H]([C@@](O)(CNCc2cccc(F)c2)COCc2ccccc2)[C@H](OCc2ccccc2)C1
inhibition (cell growth or viability, MTT; 30 µM, 72 h): 96.8%

FC(F)(F)C1(c2ccc(CN3CCN(C(c4ccccc4)c4ccc(Cl)cc4)CC3)cc2)CC1 (stereo not drawn)
EC50 (72 h): 21 ± 1.71 µM

CSC(=S)N/N=C(\C)c1ccc(Nc2nnc(-c3ccc(Cl)cc3)c3ccccc23)cc1
cell death (cell growth or viability, MTT; 78 nM): 7.08%

CC(=O)[O][Pd][c]1ccccc1-n1nc(C)cc1C.CC(=O)[O][Pd][c]1ccccc1-n1nc(C)cc1C
late apoptotic cells (annexin V/PI flow cytometry; 25 µM, 24 h): 86.3 ± 2.14%

NC(=O)c1ccc(-c2ccccc2Cl)c2c3c([nH]c12)CC[C@@H](N)C3
IC50 (cell proliferation; 96 h): 0.0179 µM

CCC(=CCc1c(O)cc2c(c1O)C(=O)CC(c1ccccc1O)O2)CC (stereo not drawn)
growth inhibition (cytotoxicity, MTT; 3.393 µM, 48 h): -4.5%

Oc1cccc(-c2cccc(O)n2)n1.[Cl-].[Cl-].[Ru+2].c1ccc(-c2ccnc3c2ccc2c(-c4ccccc4)ccnc23)cc1.c1ccc(-c2ccnc3c2ccc2c(-c4ccccc4)ccnc23)cc1
phototoxicity index (cell viability; baseline: dark EC50 over light EC50): 8.9

COc1ccc(CNC[C@@](O)(COCc2ccc(F)cc2)[C@@H]2CC[C@@H](C)C[C@H]2OCc2ccc(F)cc2)cc1
inhibition (cell growth or viability, MTT; 10 µM, 72 h): 98.3%

C=CCc1c(O)cc2c(c1O)C(=O)CC(c1ccc(O)cc1)O2 (stereo not drawn)
growth inhibition (cytotoxicity, MTT; 32.02 µM, 48 h): 2.23%

COc1ccc(CNC[C@@](O)(COCc2ccc(OC)cc2)[C@@H]2CC[C@@H](C)C[C@H]2OCc2ccc(OC)cc2)cc1
inhibition (cell growth or viability, MTT; 30 µM, 72 h): 99%

COc1cc(/C=C/C(=O)/C=C(O)/C=C/c2ccc(OCC(=O)N3CCOCCOCCOCC3)c(OC)c2)ccc1OCC(=O)N1CCOCCOCCOCC1
inhibition (cell growth or viability, SRB; 25 µM): 47.6%

CC(=O)[O][Pd][c]1ccccc1N1N=C(C)C(C)(C)C1=O.CC(=O)[O][Pd][c]1ccccc1N1N=C(C)C(C)(C)C1=O
cells with decreased ΔΨm (JC-1 flow cytometry; 25 µM, 24 h): 65.6 ± 1.23%

COCCCCCNc1nc(NCCCCCCN(C)C)c2cc(NC(=O)/C=C/CN(C)C)ccc2n1
viability (CellTiter-Glo; 0.3906 µM, 24 h, unit not given; baseline: DMSO-treated cells): 0.9 and 1.03 and 0.997

O=C(Nc1nnc2c1c(-c1ccc(Cl)cc1)nc1sc(=Cc3ccco3)c(=O)n12)c1ccccc1 (mixture of isomers)
cell growth (SRB; 10 µM, NCI60 single-dose screen; baseline: untreated): 52.1%

CCC(=CCc1c(O)cc2c(c1O)C(=O)CC(c1ccc(O)cc1)O2)CC (stereo not drawn)
growth inhibition (cytotoxicity, MTT; 54.29 µM, 48 h): 72.8%

CSC(=S)N/N=C(\C)c1ccc(S(=O)(=O)N2CCC(C)CC2)cc1
cells in G2/M phase (flow cytometry; 4.29 µM (IC50), 72 h): 35.3%

C[C@@H]1CC[C@@H]([C@@](O)(CNCc2ccccc2F)COCc2ccccc2)[C@H](OCc2ccccc2)C1
inhibition (cell growth or viability, MTT; 10 µM, 72 h): 83.7%

COc1ccc(C2CC(=O)c3c(cc(O)c(CC=C(C)C)c3O)O2)cc1 (stereo not drawn)
growth inhibition (cytotoxicity, MTT; 112.9 µM, 48 h): 53.4%

Repeated from above:
CC(=O)[O][Pd][c]1cc(C)ccc1N1N=C(C)C(C)(C)C1=O.CC(=O)[O][Pd][c]1cc(C)ccc1N1N=C(C)C(C)(C)C1=O
caspase-3/7 active cells (FLICA flow cytometry; 25 µM, 24 h): 41.1 ± 4.3%

C[C@@H]1CC[C@@H]([C@@](O)(CNCc2cccc(F)c2)COCc2ccccc2)[C@H](OCc2ccccc2)C1
inhibition (cell growth or viability, MTT; 30 µM, 72 h): 96.8%
